Results collected from several papers.
Parts stem from different laboratories: compare values within a part only.

Study 1 — method: RNA Bind-n-Seq; form: RNA; medium: in vitro; tested at: 1 µM; setting: whole 134-nt RNA, ends assumed; together with: 150 mM KCl; baseline: input library; reading: higher = stronger binding; endpoint: log2 enrichment
Target: Ras GTPase-activating protein-binding protein 1, C-terminal RGG region (G3BP1, Homo sapiens, UniProt Q13283)
UniProt Q13283, sequence (whole entry, looked up): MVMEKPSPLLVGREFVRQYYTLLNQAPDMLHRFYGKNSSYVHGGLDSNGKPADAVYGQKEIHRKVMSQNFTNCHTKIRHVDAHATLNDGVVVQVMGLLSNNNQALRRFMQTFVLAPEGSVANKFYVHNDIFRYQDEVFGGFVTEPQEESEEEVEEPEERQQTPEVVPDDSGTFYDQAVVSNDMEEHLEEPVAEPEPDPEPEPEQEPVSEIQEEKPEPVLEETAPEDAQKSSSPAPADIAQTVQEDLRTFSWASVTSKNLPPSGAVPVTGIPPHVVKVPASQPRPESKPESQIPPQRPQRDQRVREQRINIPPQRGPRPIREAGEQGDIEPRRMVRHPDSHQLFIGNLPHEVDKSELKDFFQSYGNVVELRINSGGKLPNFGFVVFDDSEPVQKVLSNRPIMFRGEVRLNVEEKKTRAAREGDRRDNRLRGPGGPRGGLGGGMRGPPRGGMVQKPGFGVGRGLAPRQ
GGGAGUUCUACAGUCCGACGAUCCUGUGCUACACAUCGUAUGUACCGAAUCGGGGAAAAAGGGGUUUUUUUGGGGUUUUUGGGGAAAGUAUUAUGUUACGCCGUUCGGAUCUGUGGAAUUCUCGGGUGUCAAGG: 0.211
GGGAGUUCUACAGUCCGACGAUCCUCAAGUCCUGUGCUACACAUCGUAUGUACCGAAUCGGGAAGGGGAAGGAAGGAAAGUAUUAUGUUACGCCGUUCGGAUCUGCACUUCCAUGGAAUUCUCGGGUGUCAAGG: -1.27
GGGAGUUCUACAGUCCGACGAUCACCAUGCAGGUGGGCAUCUUUGGGAAGUGGGGCAAGGGGGGGAUAGGGAGGGGGGUAACACUUUGAGAACAGGUGGUCCCAGGUCGUUUCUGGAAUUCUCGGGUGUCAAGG: 2.19
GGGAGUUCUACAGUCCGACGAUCGUGCUACACAUCGUAUGUACCGAAUCGGGGUUUUUUUGGGGUUUUUUUGGGGUUUUUUUGGGGAAAGUAUUAUGUUACGCCGUUCGGAUCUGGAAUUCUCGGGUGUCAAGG: 0.134
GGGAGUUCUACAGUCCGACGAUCUGUGCUACACAUCGUAUGUACCGAAUCGGGGAAAAAAAGGGGAAAAAAAGGGAAAAAAAGGGAAAGUAUUAUGUUACGCCGUUCGGAUCUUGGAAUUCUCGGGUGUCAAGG: -0.838
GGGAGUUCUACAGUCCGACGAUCCCUCAAGUCCUGUGCUACACAUCGUAUGUACCGAAUCGGUUUGGUGGUUUGGAAAGUAUUAUGUUACGCCGUUCGGAUCUGCACUUCCAGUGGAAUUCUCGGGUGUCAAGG: -0.918
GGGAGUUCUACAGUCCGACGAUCAAGUCCUGUGCUACACAUCGUAUGUACCGAAUCGGUUUUUGGAAAGGAAAAAAAGGAAAGUAUUAUGUUACGCCGUUCGGAUCUGCACUUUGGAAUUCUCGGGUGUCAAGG: -1.93
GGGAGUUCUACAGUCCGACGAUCCACAGACAACACUCACCCACACAGACACAGAGGGAAGGGGUUGGGAUGGGGACAGGGUGCACAGCAGGGCGGGGUAGGACCCCAGCCCCUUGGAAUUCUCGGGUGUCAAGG: 0.289
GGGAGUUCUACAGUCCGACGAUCUGGCCCUGGUGGCAUGCGGGGAGGAAGAGGUGGCGUCAUGGAUCGUGGUGGUCCCGGUGGAAUGUUCAGAGGUGGCCGUGGUGGAGACAGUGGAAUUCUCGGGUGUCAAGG: 2.49
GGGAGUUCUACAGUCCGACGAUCUGAAUGCUGAGAAUGUUGCUGGUCACCAGAUUGCCUCUGAAACACAGAUCCUUGAGGGCUCUUUGGGAAUAUCUGUAAAGUCACACUGCAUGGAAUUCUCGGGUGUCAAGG: -0.411

Study 2 — method: universal PBM; form: double-stranded DNA, one strand shown; medium: in vitro; tested at: not given; reading: higher = stronger binding; endpoint: E-score
Target: Sal-like protein 4, full length isoform B (SALL4, Homo sapiens, UniProt Q9UJQ4-2, residues 1-616)
Setting: 8-mer, flanks averaged, mean of replicates
Construct (chain): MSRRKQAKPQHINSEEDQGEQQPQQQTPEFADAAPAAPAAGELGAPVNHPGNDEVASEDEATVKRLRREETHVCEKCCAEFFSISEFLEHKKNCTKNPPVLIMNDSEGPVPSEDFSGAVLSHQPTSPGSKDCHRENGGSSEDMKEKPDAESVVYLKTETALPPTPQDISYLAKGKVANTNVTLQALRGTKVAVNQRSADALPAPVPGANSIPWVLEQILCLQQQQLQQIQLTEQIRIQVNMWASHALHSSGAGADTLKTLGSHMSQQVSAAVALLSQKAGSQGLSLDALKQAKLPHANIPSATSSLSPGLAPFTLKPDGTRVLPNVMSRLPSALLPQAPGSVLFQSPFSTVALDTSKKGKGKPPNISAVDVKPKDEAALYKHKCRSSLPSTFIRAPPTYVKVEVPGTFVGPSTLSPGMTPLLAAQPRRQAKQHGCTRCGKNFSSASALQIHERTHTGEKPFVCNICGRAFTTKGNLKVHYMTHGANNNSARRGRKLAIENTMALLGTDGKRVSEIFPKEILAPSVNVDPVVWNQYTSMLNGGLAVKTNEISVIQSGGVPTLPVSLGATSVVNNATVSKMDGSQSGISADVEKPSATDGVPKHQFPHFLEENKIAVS
CAGGTGCA: -0.13
TACATGAA: 0.299
GGATACCC: -0.209
CTCAGTGC: -0.176
GTTCACCA: -0.154
TCGTTAGA: 0.0767
CACCACAC: -0.0416
ACCTCTCA: -0.165
CGACACTA: -0.15
GTGACGCA: -0.155
CGAGGCAA: -0.0996
ACTTGGAC: -0.103
GGTTTTCA: 0.166
AGCTCCTG: -0.193
ACGATCTC: -0.175
ACATTCCG: -0.0387
CTCGCAAC: 0.0215

Study 3 — method: RNA Bind-n-Seq; form: RNA; medium: in vitro; tested at: 365 nM; baseline: no-protein control; reading: higher = stronger binding; endpoint: RBNS enrichment (R)
Target: RNA binding protein fox-1 homolog 2, RRM domain, GST-SBP tag (RBFOX2, Homo sapiens, UniProt O43251-10, residues 100-194)
Setting: natural RNA segment, single round, ends assumed
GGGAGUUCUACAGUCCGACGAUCUAGAAGAAAGAGAAGUGUUUUUUUAAUUGAGAGCCUCUAUGUGCAAGGUGAUAUAUAAUCAUAUCCAGUUUAAUCUUCACAAUAUCCAAUGAAGAAGGUCUCAUUAUCUCUGGAAUUCUCGGGUGCCAA: 0.615
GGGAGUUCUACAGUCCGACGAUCUUACUGAAAAACUGCACAAGAAGGUACCGUGAAUGUAAUUUCCUAGCAGGCCACUCUGCAUCUGUUAUGUCUCCACCGGAAAAAAAAUAAUCAUGUUGGUGUUUUUGCUUUGGAAUUCUCGGGUGCCAA: 0.81
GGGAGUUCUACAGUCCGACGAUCCACUGGAUUAUGAGGAAUGGAUAAAUGGAUGAGCUAGGGCUCUGGGGGUCUGCCUGCACACUCUGGGGAGCCAGGGGCCCCAGCACCCUCCAGGACAGGAGAUCUGGGAUUGGAAUUCUCGGGUGCCAA: 2.78
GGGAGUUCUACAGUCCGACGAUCCAUUGGGUUGUGGUUUGAACAUCGAGGGUGUGAAGAAAAUGAAGCAGUGGCUAAAGAAAUCUUCUCCUCUCACAAAAUACAACACUAGUGUCUUUCUUUUCUCUUUCUAGUGGAAUUCUCGGGUGCCAA: 0.39
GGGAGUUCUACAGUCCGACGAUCAAGAGACCCAGCGGCAGAGCACCUUUUACAUUUUGGACCGUUCAUGAAUGGGCAAUGUUGUGUUGAUACGCAGCCGAGUUCUACGUUAUGUGCUGUGACUGUGCAGCUGGUGGAAUUCUCGGGUGCCAA: 0.755
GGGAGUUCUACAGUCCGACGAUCCCCUGGCUACUGGGUCAAUAAUCUUUCAGGCCAUGAAUCUGGGAGGAGAGUGGUCUGUAAGCUCCAUCAGCCCUGUCCUGAGACAGCAGGGGGGAAGGACACUGGAGACUUGGAAUUCUCGGGUGCCAA: 0.514
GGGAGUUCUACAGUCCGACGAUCCAUCUUAUUUAAAGGGAUACUUUUGUAAAAGUGAAACCUUGUAUAAAGAAAGAGCAGCCUUUGUUAAUUUACUGUGGAGUUACAACCCGCAUGCUCCCUACUCCCCCACGUGGAAUUCUCGGGUGCCAA: 1.55
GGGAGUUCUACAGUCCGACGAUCGUGCCCUGUUUCACUUAUAGGGUCUAGAAUGCUUGUGUUGAGUAAAAAGGAGAUGCCCAAUAUUCAAAGCUGCUAAAUGUUCUCUUUGCCAUAAAGACUCCGUGUAACUGUGGAAUUCUCGGGUGCCAA: 0.611
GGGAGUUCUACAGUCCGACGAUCGGGUUCUUCUCGAAAAUGCCAAGUGGAAGACUUUGUGGCAUGCUCCAGAUUUAAAUCCAGCUGAGGCUCCCUUUGUUUUCAGUUCCAUGUAACAAUCUGGAAGGAAACUUUGGAAUUCUCGGGUGCCAA: 0.554

Study 4 — method: protein binding microarray; form: double-stranded DNA, one strand shown; medium: in vitro; tested at: not given; baseline: not given; reading: higher = stronger binding; endpoint: E-score
Target: Histone acetyltransferase KAT6A, winged helix 1, GST fusion (KAT6A, Homo sapiens, UniProt Q92794, residues 1-85)
Setting: 8-mer, flanks averaged, mean of 2 arrays, mostly near background
Target sequence (chain): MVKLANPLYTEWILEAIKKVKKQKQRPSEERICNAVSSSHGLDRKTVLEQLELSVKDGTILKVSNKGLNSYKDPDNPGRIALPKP
ACAATGAG: -0.223
CCGAACTC: -0.268
ACTAATTC: 0.00475
CCTCTCTC: -0.307
AAGTAAGT: -0.151
CCCGACGG: 0.475
ATTAGTTC: -0.129
GGGTATAC: -0.0528
AACGATAC: -0.233
AGGCCTGA: -0.222
CGAGGCCG: 0.284
AACCGTCC: 0.138
ACCGAACC: 0.0535
AAACTTTC: -0.108
GGAGCTCA: -0.101
CATTCATC: -0.21
CCCGTTCG: 0.215
AAAGATCG: -0.08
GTGGAGGA: -0.147
ACACGGCA: 0.324
TTAGCTAA: -0.254
CGTGTTGC: 0.181
ATTGGTTC: -0.203
GATAGCGA: 0.0444
AATCGTGG: -0.155

For quick reference, copied from above (study 1):
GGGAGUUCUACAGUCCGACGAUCCUCAAGUCCUGUGCUACACAUCGUAUGUACCGAAUCGGGAAGGGGAAGGAAGGAAAGUAUUAUGUUACGCCGUUCGGAUCUGCACUUCCAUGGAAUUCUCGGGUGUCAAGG: -1.27
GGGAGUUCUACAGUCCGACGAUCACCAUGCAGGUGGGCAUCUUUGGGAAGUGGGGCAAGGGGGGGAUAGGGAGGGGGGUAACACUUUGAGAACAGGUGGUCCCAGGUCGUUUCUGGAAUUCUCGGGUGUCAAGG: 2.19
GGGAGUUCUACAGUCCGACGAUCGUGCUACACAUCGUAUGUACCGAAUCGGGGUUUUUUUGGGGUUUUUUUGGGGUUUUUUUGGGGAAAGUAUUAUGUUACGCCGUUCGGAUCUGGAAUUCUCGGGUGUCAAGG: 0.134
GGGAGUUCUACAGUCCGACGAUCUGUGCUACACAUCGUAUGUACCGAAUCGGGGAAAAAAAGGGGAAAAAAAGGGAAAAAAAGGGAAAGUAUUAUGUUACGCCGUUCGGAUCUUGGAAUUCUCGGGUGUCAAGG: -0.838
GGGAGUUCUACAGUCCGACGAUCCCUCAAGUCCUGUGCUACACAUCGUAUGUACCGAAUCGGUUUGGUGGUUUGGAAAGUAUUAUGUUACGCCGUUCGGAUCUGCACUUCCAGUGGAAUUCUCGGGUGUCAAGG: -0.918
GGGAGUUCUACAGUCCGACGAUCAAGUCCUGUGCUACACAUCGUAUGUACCGAAUCGGUUUUUGGAAAGGAAAAAAAGGAAAGUAUUAUGUUACGCCGUUCGGAUCUGCACUUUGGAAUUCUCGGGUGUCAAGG: -1.93
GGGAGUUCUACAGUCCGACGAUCCACAGACAACACUCACCCACACAGACACAGAGGGAAGGGGUUGGGAUGGGGACAGGGUGCACAGCAGGGCGGGGUAGGACCCCAGCCCCUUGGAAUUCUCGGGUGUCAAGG: 0.289
